Results collected from several papers.
Every numbered part comes from another study and shows a few of its results, in no order.

Sample 1 — observed: enzyme activity; mode: inhibitor; tested at: 20 µM
Target: Replicase polyprotein 1ab, main protease (rep, Severe acute respiratory syndrome coronavirus 2, UniProt P0DTD1)
O=c1[nH]nc(Sc2ncc([N+](=O)[O-])s2)n1-c1ccc2c(c1)OCCO2 gave an inhibition of 21.2%.
NC(=S)N/N=C/c1coc2ccccc2c1=O has an inhibition of 2.29%.
The inhibition of CN1CCN(C(=O)c2ccc(-c3ccc4c(C=O)c(O)ccc4c3)s2)CC1 is reported as 66.5%.
S=C=Nc1cccc(NC(=S)NCCCCNC(=S)Nc2cccc(N=C=S)c2)c1 has an inhibition of 92%.

Sample 2 — cell line: HEK-293T/ACE2; observed: pseudovirus infection; organism: VSV pseudotyped with SARS-CoV-2 spike; tested at: concentration not given; baseline: vehicle-treated
For COC(=O)c1ccc2c(c1)NC(=O)/C2=C(\Nc1ccc(N(C)C(=O)CN2CCN(C)CC2)cc1)c1ccccc1, the GFP-positive cells was 78.4%.
For CCCCCCCCCC(=O)N[C@@H](Cc1c[nH]c2ccccc12)C(=O)N[C@H](CC(N)=O)C(=O)N[C@@H](CC(=O)O)C(=O)N[C@@H]1C(=O)NCC(=O)N[C@@H](CCCN)C(=O)N[C@@H](CC(=O)O)C(=O)N[C@H](C)C(=O)N[C@@H](CC(=O)O)C(=O)NCC(=O)N[C@H](CO)C(=O)N[C@@H]([C@H](C)CC(=O)O)C(=O)N[C@@H](CC(=O)c2ccccc2N)C(=O)O[C@@H]1C, the GFP-positive cells was 89%.
With COC(=O)N[C@H](C(=O)N[C@@H](Cc1ccccc1)[C@@H](O)CN(Cc1ccc(-c2ccccn2)cc1)NC(=O)[C@@H](NC(=O)OC)C(C)(C)C)C(C)(C)C.O=S(=O)(O)O the GFP-positive cells was 64.1%.

Sample 3 — observed: enzyme activity; mode: inhibitor; tested at: 20 µM
Target: Replicase polyprotein 1ab, polymerase (rep, Severe acute respiratory syndrome coronavirus 2, UniProt P0DTD1)
With Nc1ncc(Cc2ccc(Br)cc2)s1 the inhibition was -3.66%.
The inhibition of C#CCC(Cc1cnc2nc(N)nc(N)c2n1)c1ccc(C(=O)N[C@@H](CCC(=O)O)C(=O)O)cc1 (some centres unmarked) is reported as -2.3%.
NC(=O)NS(=O)(=O)c1ccc(N)cc1 gave an inhibition of 1.57%.
CC(=O)CC/C=C(\C)CC/C=C(\C)CC/C=C(\C)CCC=C(C)C has an inhibition of 6.88%.
With CCN(CC)CC1CCN(c2ncc3ncnc(Nc4ccc(F)c(Cl)c4)c3n2)CC1 the inhibition was 0.56%.
CCN(CC)c1ccc(/C=N/NC(=O)c2ccc(O)cc2)cc1 gave an inhibition of -2.02%.
With Nc1nc(/C(=C/CC(=O)O)C(=O)N[C@@H]2C(=O)N3C(C(=O)O)=CCS[C@H]23)cs1 the inhibition was -9.96%.
For CN1C(=O)c2c(nn(Cc3ccc(-c4cccc(F)n4)cc3)c2Nc2ccccc2)N2C1=N[C@@H]1CCC[C@@H]12, the inhibition was 68.1%.
CN(c1nccc(=O)[nH]1)C1CCN(c2nc3ccccc3n2Cc2ccc(F)cc2)CC1 gave an inhibition of -7.93%.
For CCc1nc(C(N)=O)c(Nc2ccc(N3CCC(N4CCN(C)CC4)CC3)c(OC)c2)nc1NC1CCOCC1, the inhibition was 0.43%.
CC1(C)CCC(C)(C)c2c1cc(C(=O)Nc1cc(F)c(C(=O)O)c(F)c1)c(O)c2Cl has an inhibition of 4.96%.
CCOC(CN1CCN(CC(C)C(=O)c2ccccc2)CC1)c1ccccc1 (centres unmarked) gave an inhibition of 4.12%.
With C[C@H](N)C(=O)N[C@@]1(C(=O)O)C[C@@H](Sc2nnc[nH]2)[C@H]2[C@H](C(=O)O)[C@H]21 the inhibition was 3.23%.
With CC(=O)Nc1cccc(O)c1 the inhibition was 6.49%.
The inhibition of CCC1(C2=NCCN2)Cc2ccccc2O1 (centres unmarked) is reported as -0.53%.
With O=C(NCCCN1CCCCCC1)C(c1ccccc1)C1CCCCC1 (centres unmarked) the inhibition was -10.3%.
O=c1[nH]c(C2CCCN2)nc2c1oc1ccc(Cl)cc12 (centres unmarked) gave an inhibition of 0.04%.
With CCOP(=S)(OCC)Oc1cc(C)nc(C(C)C)n1 the inhibition was -6.75%.
For C[C@H]1COC2=C1C(=O)C(=O)c1c2ccc2c1CCCC2(C)C, the inhibition was 13.4%.
With N#Cc1cnc2cnc(NCc3cccnc3)cc2c1Nc1ccc(F)c(Cl)c1 the inhibition was 9.3%.
For CNC(=N)NCCC[C@H](N)C(=O)O, the inhibition was -1.56%.
COc1ccc(NC(=O)c2ccc(-c3ccc(-c4noc(C)n4)cc3C)cc2)cc1OCCN(C)C has an inhibition of 4.16%.
With CCn1nc(C)c2c1C(c1ccccc1)=NCC(=O)N2 the inhibition was 0.25%.
For CCOC(=O)[C@H](CCc1ccccc1)N[C@H]1CS[C@H](c2cccs2)CN(CC(=O)O)C1=O, the inhibition was -5.93%.
For COc1ccc2cc3[n+](cc2c1OC)CCc1cc2c(cc1-3)OCO2, the inhibition was 4.99%.

Sample 4 — technique: RNA Bind-n-Seq; molecule type: RNA; sample: in vitro; tested at: 365 nM; baseline: no-protein control; direction: higher = stronger binding
Target: RNA binding protein fox-1 homolog 2, RRM domain, GST-SBP tag (RBFOX2, Homo sapiens, UniProt O43251-10, residues 100-194)
Setting: natural RNA segment, single round, ends assumed
All sequences stand within: GGGAGUUCUACAGUCCGACGAUC … UGGAAUUCUCGGGUGCCAA
Residues (chain): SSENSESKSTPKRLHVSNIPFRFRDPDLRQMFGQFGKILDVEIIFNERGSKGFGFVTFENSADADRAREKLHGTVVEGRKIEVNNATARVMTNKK
`UAGACUUUUGAAGUGUUUGUGUUUUAAUUUAAUAUGUUUAUAAGCAUGUAUAAACAUUUAGCAUAUUUUUAUCAUAGGUCUAAAAAUAUUUGUUUACUAAAUACCUGUGA` — result for “RBNS enrichment (R)”: 57.4.
`ACAGCACCUCAGACCCCAAGUGUGUCUGGAGUUCCCUGUCGGCCAGGGAGAGGACACCAGCACCUGGGACCUCCAGAGAAGCCGCACUGAGCGGACUUGUCGACAGAGGG` — result for “RBNS enrichment (R)”: 0.33.
`UGCUCCUGUCACUCUUCAAAAACACCCCUUCUAUUACUGCCUCCGGGGAUGAAGCAGUAGCUAGGUUGCUUAACCUCCCCUCUCCAGCAGAGGCAUAAUCCAGAUAAGUA` — result for “RBNS enrichment (R)”: 1.62.
`GAAGGUGGACCUUCUACAAUCUGUCAUGAACUGUGAUAUUGUAAGGUCUAUAUUCUGUAUGUGGAUAACAGACCCAAUCAGGAAACGAGCCUUAUGUGUGUCGUUAACAU`: “RBNS enrichment (R)” 0.239.
For `CCGUUGUGGUCAGAGGAACUCUGGUGUUUGGUUCCCUGCUCAGCUGCGCGUGGACUGGGCUGAGCUCCUCACCAUACACUAGUGCCGGCUUUUGUUUCCUGUAAACAGUG`, “RBNS enrichment (R)” read 0.71.
Under “RBNS enrichment (R)”, `UCUCCAGUUAGCUAACUGGAUUCUUAAGGAUGAUUCUAGCAAAUUAUAAGAAUAAAUAGUAAAAAGAGGCAGGGACAUAUUUGUUAACAAUAUAUUGAAAUGGGAGCUUU` is recorded as 0.948.
For `CUGGAAAGUAGAGGGAACCGGCACUGCUCAGAGCAGAUGGCGGCUUCUGGAGGCACACAGUGGGAGUACACCCCUUCAUGUUAUUGGCCAGUUGCUGGAGAAUGCUGUAG`, “RBNS enrichment (R)” read 0.403.
Under “RBNS enrichment (R)”, `AUUGCUCAUUUGUAAAAUUGUCCUAAUCUUUCCUAGCUUUUUAAUAGUUAAUAUUAGAAACUCUUUAAUAGUUUUCCUUUCAGUUUGUGAGCUCUUCUCUGUCGCCCUGA` is recorded as 0.515.

Sample 5 — technique: protein-binding microarray; molecule type: double-stranded DNA, one strand shown; sample: in vitro; tested at: 0.8 µM; setting: whole 60-bp probe, no competitor; direction: higher = stronger binding; all sequences stand within: … GTCTTGATTCGCTTGACGCTGCTG
Target: Centromere-binding protein 1, full length, N-terminal tag (CBF1, Saccharomyces cerevisiae, UniProt P17106, residues 1-351)
UniProt P17106, sequence (whole entry, looked up): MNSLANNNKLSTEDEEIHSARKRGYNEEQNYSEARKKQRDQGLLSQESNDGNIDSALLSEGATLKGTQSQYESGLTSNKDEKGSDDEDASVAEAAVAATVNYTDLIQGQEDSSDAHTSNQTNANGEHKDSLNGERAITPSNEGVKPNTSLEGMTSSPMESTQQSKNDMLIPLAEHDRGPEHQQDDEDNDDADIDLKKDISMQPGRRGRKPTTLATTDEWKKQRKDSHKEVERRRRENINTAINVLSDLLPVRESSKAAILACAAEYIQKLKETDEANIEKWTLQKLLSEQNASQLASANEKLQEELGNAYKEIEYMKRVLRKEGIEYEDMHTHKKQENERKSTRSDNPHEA
`CTAATTGGATGCTAAGACGTGATAGAGCTGGTTTTC` has a fluorescence intensity of 544 a.u.
The fluorescence intensity of `CTAACCGTTGTCTCCCACGTTTCTTTTTTCTCGTTC` is reported as 617 a.u.
With `CCTAACTACTATATTCATGTGCTATAGCTTCGTACA` the fluorescence intensity was 585 a.u.
The fluorescence intensity of `CTATCTTTTTCTTTTCTGGTGACTAATCGGTGGTTC` is reported as 601 a.u.
For `CTATCCTCTTCTTTTCACATGAGAAATGATATATTC`, the fluorescence intensity was 626 a.u.
With `CTATAGACAAAAAGACACGGGACATCTTCTATCTTC` the fluorescence intensity was 763 a.u.
`CTAATTGAATTAAGTAACATCATTGTTTAACTTTTC` has a fluorescence intensity of 477 a.u.
`CTAACCACTCGATACCCCATCACCTGCATAATTTTC` has a fluorescence intensity of 1090 a.u.

Sample 6 — technique: universal PBM; molecule type: double-stranded DNA, one strand shown; sample: in vitro; tested at: not given; direction: higher = stronger binding
Target: Sal-like protein 4, full length isoform B (SALL4, Homo sapiens, UniProt Q9UJQ4-2, residues 1-616)
Setting: 8-mer, flanks averaged, mean of replicates
`GAGACTCA` gave an E-score of -0.0756.
For `CTTTTGGA`, the E-score was 0.00074.
`ATTCGCCG` gave an E-score of -0.0881.
The E-score of `ATCTTCTA` is reported as 0.0761.
With `CAAATACC` the E-score was 0.0526.
With `ACATCCAC` the E-score was 0.0617.
`AGCGGTCA` has an E-score of -0.14.
`AAGGTCCC` gave an E-score of -0.19.

Repeated from above (sample 5):
With `CCTAACTACTATATTCATGTGCTATAGCTTCGTACA` the fluorescence intensity was 585 a.u.
The fluorescence intensity of `CTATCTTTTTCTTTTCTGGTGACTAATCGGTGGTTC` is reported as 601 a.u.
`CTAATTGGATGCTAAGACGTGATAGAGCTGGTTTTC` has a fluorescence intensity of 544 a.u.
With `CTATAGACAAAAAGACACGGGACATCTTCTATCTTC` the fluorescence intensity was 763 a.u.
The fluorescence intensity of `CTAACCGTTGTCTCCCACGTTTCTTTTTTCTCGTTC` is reported as 617 a.u.
`CTAATTGAATTAAGTAACATCATTGTTTAACTTTTC` has a fluorescence intensity of 477 a.u.
`CTAACCACTCGATACCCCATCACCTGCATAATTTTC` has a fluorescence intensity of 1090 a.u.
